Results gathered from unrelated publications.
Each line is one published result; not all experiments were run side by side. ± gives the spread as reported.

Compound	cell line	assay	system	conditions	scale	endpoint	result
COc1cc(CNC(=O)C[C@H](C)CCC=C(C)C)ccc1OCc1cn(-c2ccc(Cl)cc2Cl)nn1	A549/ATCC	SRB		10 µM, 48 h		growth	59.4%
O=S(=O)(CC(F)(F)F)Nc1ccc(Oc2ncccc2-c2ccnc(N[C@H]3CCCNC3)n2)c2ccccc12	INS1 cells with Dox-inducible IRE1α	RNA-Seq		20 µM, together with: 5 ng/mL doxycycline		Txnip mRNA level	inhibited
CC/C=C\C/C=C\C/C=C\C/C=C\C/C=C\C/C=C\CCC(=O)Nc1ccn(C2OC(CO)C(O)C2(F)F)c(=O)n1 (stereo not drawn)	OVCAR-8	NCI60 screen				TGI	11.4 µM
COc1cc(CNC(=O)C[C@H](C)CCC=C(C)C)ccc1OCc1cn(-c2cccc(Cl)c2)nn1	MOLT-4 leukaemia cells	SRB		10 µM, 48 h		growth percent	47.7%
COc1ccc([C@@H]2CC(=O)c3c(O)cc(O[C@@H]4O[C@H](CO[C@@H]5O[C@@H](C)[C@H](O)[C@@H](O)[C@H]5O)[C@@H](O)[C@H](O)[C@H]4O)cc3O2)cc1O	A549	Matrigel Transwell invasion		150 µg/mL, 24 h		invasion	39 ± 1.5%
COc1ccc(CC2COC(=O)C2Cc2ccc3c(c2)OCO3)cc1OC (mixture of isomers)	A2780cis	western blot, refers to: CDK1		3.25 µM, 72 h		protein level	decreased
CN(C)c1cc2ccccc2c(N)n1	LX-2	ELISA	supernatant	20 µM, 24 h		IFN-γ protein level	increased
CC(=O)O[C@H]1C2=C(C(=O)C(O)=C(C(C)C)C2=O)[C@@]2(C)CCCC(C)(C)[C@@H]2[C@@H]1O	NCI-H460/R P-gp overexpressing	MTT		72 h		GI50	3.1 ± 0.4 µM
CC(=O)OC[C@H]1O[C@@H](Sc2sc(C(=O)c3ccc(Br)cc3)c(N)c2-c2nc3ccccc3s2)[C@H](OC(C)=O)[C@@H](OC(C)=O)[C@H]1OC(C)=O	UACC-62	SRB		10 µM, 48 h	relative to: untreated	growth	60.4%
COc1cc(CNC(=O)C[C@H](C)CCC=C(C)C)ccc1OCc1cn(-c2ccc(F)cc2)nn1	MOLT-4 leukaemia cells	SRB		10 µM, 48 h		growth percent	67.5%
CC[C@H](C(=O)N1CCCC[C@H]1C(=O)O[C@H](CCc1ccc(OC)c(OC)c1)c1cccc(OCC(=O)NCCC(=O)N2CCN(CCCOc3cc4c(Nc5ccc(F)c(Cl)c5)ncnc4cc3OC)CC2)c1)c1cc(OC)c(OC)c(OC)c1	HeLa FKBP12 F36V-PTPN2 knock-in	degrader		5 µM, 6 days		decrease in viability	78.5%
COc1ccc(/C=C/C2=[N+]3C(=C(CO)c4c(C)cc(/C=C/c5ccc(OC)cc5)n4[B-]3(F)F)C(C)=C2)cc1	RPE-1	resazurin		together with: 645 nm light	relative to: dark over light IC50	phototoxicity index	500 ± 500
COc1cc(CNC(=O)C[C@H](C)CCC=C(C)C)ccc1OCc1cn(-c2ccc([N+](=O)[O-])cc2)nn1	IGROV-1 ovarian cancer cells	SRB		10 µM, 48 h		growth percent	78.8%
O=Cc1c(O)ccc2ccccc12	HUVEC	RNA sequencing, refers to: HSPA6		75 µM, 24 h	relative to: DMSO	log2 fold change	3.52
COc1cc(CNC(=O)C[C@H](C)CCC=C(C)C)ccc1OCc1cn(-c2ccccc2[N+](=O)[O-])nn1	MDA-MB-231/ATCC	SRB		10 µM, 48 h		growth	71.9%
COC(C(=NOCC(=O)NCc1ccccc1)C(O)C(C)O)C1Cc2cc3cc(OC4CC(OC5CC(O)C(O)C(C)O5)C(O)C(C)O4)c(C)c(O)c3c(O)c2C(=O)C1OC1CC(OC2CC(OC3CC(C)(O)C(O)C(C)O3)C(O)C(C)O2)C(O)C(C)O1 (stereo not drawn)	PC-3	cell growth or viability		72 h		GI50	0.292 µM
O=C(c1ccc2ccccc2c1)c1cn(-c2ccccc2)nc1C1=Nn2c(Cc3nnc4n3N=C(c3nn(-c5ccccc5)cc3C(=O)c3ccc5ccccc5c3)CS4)nnc2SC1	MCF7 cells	RT-PCR, refers to: p53		IC50, 48 h	relative to: untreated	mRNA level	12.3 fold
COc1cc(CNC(=O)C[C@H](C)CCC=C(C)C)ccc1OCc1cn(-c2ccccc2F)nn1	IGROV-1 ovarian cancer cells	SRB		10 µM, 48 h		growth percent	81.9%
Cc1nn(-c2ccc(S(=O)(=O)N[C@H](CO)CC(C)C)cc2)c2nn3nnnc3nc12	PC-3	DNA damage, alkaline comet		1 µM, 24 h		tail DNA	38.8 ± 4.36%
CC(C)c1cccc(C(C)C)c1-n1c(Cl)c(Cl)n(-c2c(C(C)C)cccc2C(C)C)c1=[Se].[Cl][Ag]	LoVo MDR	MTT			relative to: LoVo MDR over LoVo	resistance factor	0.8
COc1cc(CNC(=O)C[C@H](C)CCC=C(C)C)ccc1OCc1cn(-c2ccc(Cl)c(Cl)c2)nn1	IGROV-1 ovarian cancer cells	SRB		10 µM, 48 h		growth percent	83.1%

Some of these lines once more:
Compound	cell line	assay	system	conditions	scale	endpoint	result
COc1cc(CNC(=O)C[C@H](C)CCC=C(C)C)ccc1OCc1cn(-c2cccc(Cl)c2)nn1	MOLT-4 leukaemia cells	SRB		10 µM, 48 h		growth percent	47.7%
COc1ccc([C@@H]2CC(=O)c3c(O)cc(O[C@@H]4O[C@H](CO[C@@H]5O[C@@H](C)[C@H](O)[C@@H](O)[C@H]5O)[C@@H](O)[C@H](O)[C@H]4O)cc3O2)cc1O	A549	Matrigel Transwell invasion		150 µg/mL, 24 h		invasion	39 ± 1.5%
